Published values from different studies.
Each line is one published result; not all experiments were run side by side. ± marks the error that the study gave.
UniProt P05177, sequence (whole entry, looked up): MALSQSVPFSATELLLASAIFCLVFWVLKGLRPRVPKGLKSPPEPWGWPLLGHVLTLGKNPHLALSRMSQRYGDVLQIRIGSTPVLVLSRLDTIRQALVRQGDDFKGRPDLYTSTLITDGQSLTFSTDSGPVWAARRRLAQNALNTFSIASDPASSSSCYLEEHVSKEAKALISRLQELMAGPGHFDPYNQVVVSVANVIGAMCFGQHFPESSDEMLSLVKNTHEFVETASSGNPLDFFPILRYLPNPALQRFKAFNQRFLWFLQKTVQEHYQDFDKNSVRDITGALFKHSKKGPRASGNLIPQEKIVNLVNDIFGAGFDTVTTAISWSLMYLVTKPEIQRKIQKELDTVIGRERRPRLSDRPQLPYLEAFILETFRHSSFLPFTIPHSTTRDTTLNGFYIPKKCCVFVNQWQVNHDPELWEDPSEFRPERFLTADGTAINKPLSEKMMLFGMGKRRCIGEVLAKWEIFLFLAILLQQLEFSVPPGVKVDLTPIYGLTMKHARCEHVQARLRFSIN
UniProt P13569, sequence (whole entry, unmodified, looked up): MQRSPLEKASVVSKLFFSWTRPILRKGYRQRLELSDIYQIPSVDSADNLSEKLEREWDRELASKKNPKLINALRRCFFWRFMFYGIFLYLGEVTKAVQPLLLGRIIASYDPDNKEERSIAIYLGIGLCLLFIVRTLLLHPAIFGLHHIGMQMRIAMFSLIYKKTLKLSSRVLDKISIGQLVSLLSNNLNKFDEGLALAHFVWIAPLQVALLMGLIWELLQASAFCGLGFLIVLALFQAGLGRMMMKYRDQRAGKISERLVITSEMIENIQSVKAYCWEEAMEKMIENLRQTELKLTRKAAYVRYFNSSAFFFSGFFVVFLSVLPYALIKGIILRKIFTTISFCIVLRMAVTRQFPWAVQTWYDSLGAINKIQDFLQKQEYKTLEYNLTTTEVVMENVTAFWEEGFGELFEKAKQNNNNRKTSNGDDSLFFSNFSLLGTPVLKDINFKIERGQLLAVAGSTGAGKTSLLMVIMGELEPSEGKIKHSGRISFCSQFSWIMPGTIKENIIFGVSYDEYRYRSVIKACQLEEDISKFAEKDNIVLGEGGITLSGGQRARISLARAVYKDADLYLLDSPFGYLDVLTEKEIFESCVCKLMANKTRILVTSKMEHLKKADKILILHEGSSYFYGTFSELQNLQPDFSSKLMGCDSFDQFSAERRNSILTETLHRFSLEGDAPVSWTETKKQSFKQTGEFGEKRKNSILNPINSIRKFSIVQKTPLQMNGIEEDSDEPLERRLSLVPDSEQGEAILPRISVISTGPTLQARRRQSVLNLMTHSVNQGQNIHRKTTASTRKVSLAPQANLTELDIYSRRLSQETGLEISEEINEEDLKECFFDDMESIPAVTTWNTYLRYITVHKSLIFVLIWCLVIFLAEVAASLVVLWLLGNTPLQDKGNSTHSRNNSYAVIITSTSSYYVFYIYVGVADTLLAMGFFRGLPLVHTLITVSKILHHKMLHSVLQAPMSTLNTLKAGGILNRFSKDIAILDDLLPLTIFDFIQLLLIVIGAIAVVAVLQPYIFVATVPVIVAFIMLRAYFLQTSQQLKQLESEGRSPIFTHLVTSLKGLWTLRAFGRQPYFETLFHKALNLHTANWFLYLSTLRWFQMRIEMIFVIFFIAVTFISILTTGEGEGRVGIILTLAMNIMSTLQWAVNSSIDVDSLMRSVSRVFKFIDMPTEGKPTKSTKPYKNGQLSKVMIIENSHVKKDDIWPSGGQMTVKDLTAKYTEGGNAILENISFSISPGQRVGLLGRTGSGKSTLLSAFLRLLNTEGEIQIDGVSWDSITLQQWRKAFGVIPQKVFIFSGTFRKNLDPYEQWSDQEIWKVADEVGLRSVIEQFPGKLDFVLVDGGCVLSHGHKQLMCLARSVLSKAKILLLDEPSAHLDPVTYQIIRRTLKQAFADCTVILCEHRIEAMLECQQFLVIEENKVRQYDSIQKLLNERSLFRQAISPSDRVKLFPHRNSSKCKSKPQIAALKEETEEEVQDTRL
UniProt P21554, sequence (whole entry, unmodified, looked up): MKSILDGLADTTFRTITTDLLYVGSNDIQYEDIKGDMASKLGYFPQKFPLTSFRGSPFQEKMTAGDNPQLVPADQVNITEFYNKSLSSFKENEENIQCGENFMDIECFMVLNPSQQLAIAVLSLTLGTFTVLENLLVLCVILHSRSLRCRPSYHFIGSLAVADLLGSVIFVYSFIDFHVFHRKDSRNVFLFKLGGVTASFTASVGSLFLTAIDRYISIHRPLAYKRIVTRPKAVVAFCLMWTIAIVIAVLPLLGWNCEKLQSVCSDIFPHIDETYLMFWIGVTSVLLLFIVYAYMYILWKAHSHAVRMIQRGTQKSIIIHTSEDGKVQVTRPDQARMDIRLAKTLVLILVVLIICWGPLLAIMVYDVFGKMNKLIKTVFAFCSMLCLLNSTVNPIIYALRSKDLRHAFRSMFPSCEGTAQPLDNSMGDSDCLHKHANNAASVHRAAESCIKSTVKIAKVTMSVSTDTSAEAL

SMILES	tested on	test	system	conditions	how to read	measurement	value
CCCCCCCCCC(=O)NCC(=O)N[C@@H](CC(C)C)C(=O)N[C@@H](CC(C)C)C(=O)N[C@@H](CCCCN)C(=O)N[C@@H](CCCNC(=N)N)C(=O)N[C@H](C(=O)N[C@@H](CCCCN)C(=O)N[C@H](C(=O)N[C@@H](CC(C)C)C(=O)N[C@@H](CC(C)C)C(N)=O)[C@@H](C)O)[C@@H](C)CC	human erythrocytes	–	–	1 h, 37 °C, 10% haemolysis	–	minimum haemolytic concentration	16.4 µM
C[C@@](O)(C(F)F)[C@H](NC(=O)c1ccc(C#CC#CC2CC2)cc1)C(=O)NO	–	–	dog, plasma	intravenous, 10 mg/kg	–	AUC(0-inf)	5200 ng·h/mL
COc1ccc(CNc2nc(N3CCC[C@H]3CO)ncc2C(=O)NNC(=O)c2cnc(N3CCC[C@H]3CO)nc2NCc2ccc(OC)c(Cl)c2)cc1Cl	Salmonella typhimurium	–	TA102	500 µg/plate	–	revertant count	235 ± 13
O=C1C=CC(=O)C(c2cc(Cl)ccc2Cl)=C1	–	–	BALB/c mouse	sc, 10 mg/kg daily, 5 days/week, two weeks	–	tolerability	not toxic
COc1cc(C(=O)NCCOCCOCCOCCNC(=O)c2ccc([18F])nc2)ccc1NC(=O)C1NC(CC(C)(C)C)C(C#N)(c2ccc(Cl)cc2F)C1c1cccc(Cl)c1F (stereo not shown)	HepG2 tumour model	–	host not given, tumour	2 h, tumour-bearing	–	tracer uptake	2.07 %ID/g
CN[C@](C)(C[18F])C(=O)O	DU-145 tumour model	–	host not given, muscle	1 h, tumour-bearing	–	tracer uptake	1.2 %ID/g
N=C(N)NCCC[C@@H]1NC(=O)[C@H](CCCCNC(=O)CC[C@H](NC(=O)CCOCCOCCOCCOCCNC(=O)CN2CCN(CC(=O)O)CCN(CC(=O)O)CCN(CC(=O)O)CC2)C(=O)NCCCC[C@@H]2NC(=O)[C@@H](Cc3ccccc3)NC(=O)[C@H](CC(=O)O)NC(=O)CNC(=O)[C@H](CCCNC(=N)N)NC2=O)NC(=O)[C@@H](Cc2ccccc2)NC(=O)[C@H](CC(=O)O)NC(=O)CNC1=O [indium-111 labelled]	–	–	athymic nude mice, female, U-87 MG glioma xenograft, tumour and lungs	intravenous, 24 h	reference: tumour over lungs	tumour to tissue ratio	3.95 ± 0.77
C[C@H](NC(=O)[C@H](CCC(N)=O)NC(=O)[C@H](C)NC(=O)[C@H](CCCCN)NC(=O)[C@H](CCC(N)=O)NC(=O)[C@H](C)NC(=O)[C@H](CCCCN)NC(=O)[C@H](CCC(N)=O)NC(=O)[C@H](C)NC(=O)[C@H](CCC(N)=O)NC(=O)[C@H](CCCCN)NC(=O)[C@H](C)NC(=O)[C@H](CCC(N)=O)NC(=O)[C@H](CCCCN)NC(=O)[C@H](C)NC(=O)[C@H](CCC(N)=O)NC(=O)[C@H](C)NC(=O)[C@H](CCCCN)NC(=O)[C@H](CCC(N)=O)NC(=O)[C@H](C)NC(=O)[C@H](CCCCN)NC(=O)[C@H](CO)NC(=O)[C@H](Cc1ccc(O)cc1)NC(=O)CNC(=O)CNC(=O)CN)C(=O)N[C@@H](CCCCN)C(=O)N[C@@H](CCC(N)=O)C(=O)N[C@@H](C)C(=O)N[C@@H](CCCCN)C(=O)N[C@@H](CCC(N)=O)C(=O)O	–	binding, SPR two-state model	rVλ6Wil fibrils	300 nM	–	Rmax	97.6 RU
CCCCn1cc(C(=O)O)c(=O)c2cc(F)c3c(nnn3-c3ccccc3Cl)c21	HT-29	cell growth or viability, SRB	–	–	–	IC50	222 µM
CC[C@H](C)C(=O)N1CCC(NC(=O)Nc2ccc(OC(F)(F)F)c(F)c2)CC1	–	–	healthy volunteers	oral, 16 mg single dose	–	subjects with palpitations TEAE	0%
O=C(O)CCC(NP(=O)(O)OCCC[C@@H](NC(=O)CCC(NC(=O)CCCCCNC(=O)c1ccc([18F])cc1)C(=O)O)C(=O)O)C(=O)O (stereo partly shown)	CWR22Rv1 tumour model	–	host not given, bone	intravenous, 2 h, tumour-bearing	–	tracer uptake	0.23 %ID/g
COc1ccc(CNc2nc(N3CCC[C@H]3CO)ncc2C(=O)NN)cc1Cl	Salmonella typhimurium	–	TA98	1000 µg/plate, 48 h, added: rat liver S9	–	revertant count	36 ± 4
CCCCCc1cc(O)c2c(c1)OC(C)(C)C1CCC(C)=CC21 (single isomer, unassigned; (-))	Cytochrome P450 1A2 (CYP1A2, Homo sapiens, UniProt P05177)	enzyme activity, inhibitor	microsomes from HEK293 cells	pH 7.4, added: phenacetin	–	Ki	2.1 ± 0.62 µM
CN(C)CCNC(=O)/C=C/[C@H](Cc1ccccc1)Nc1ccnc2cc(Cl)ccc12	Plasmodium falciparum	–	Vero, K1 chloroquine-resistant	–	reference: Vero CC50 over parasite IC50	selectivity index	344
CN(C)CC1CCCCC1(O)c1cccc(O)c1 (stereo not shown)	P-glycoprotein	–	Caco-2 TC7	1 µM, 3 h, pH 7.4, added: elacridar 4 µM	–	Papp B to A	16.2 ± 0.5 ×10⁻⁶ cm/s
CC(C)[C@H](N)C(=O)N[C@@H](Cc1ccc(O)cc1)C(=O)N[C@@H](CCCCN)C(=O)N[C@H](C(=O)N[C@@H](CCCCN)C(=O)N[C@H](C(=O)N[C@@H](CCCCN)C(=O)N[C@H](C(=O)N[C@@H](CCCCN)C(=O)N[C@H](C(=O)N[C@@H](CCCCN)C(=O)N[C@H](C(=O)N[C@@H](CCCCN)C(=O)N[C@H](C(=O)N[C@@H](CCCCN)C(=O)N[C@H](C(=O)N[C@@H](CCCCN)C(=O)N[C@H](C(=O)O)[C@@H](C)O)C(C)C)[C@@H](C)O)C(C)C)[C@@H](C)O)C(C)C)[C@@H](C)O)C(C)C	–	binding, SPR two-state model	rVλ6Wil fibrils	300 nM	–	Rmax	89.7 RU
O=C(O)CCC(NP(=O)(O)OCCC[C@@H](NC(=O)CCC(NC(=O)CCCCCNC(=O)CCCCCNC(=O)c1ccc([18F])cc1)C(=O)O)C(=O)O)C(=O)O (stereo partly shown)	CWR22Rv1 tumour model	–	host not given, blood	intravenous, 2 h, tumour-bearing	–	tracer uptake	0.03 %ID/g
N=C(N)NCCC[C@@H]1NC(=O)[C@H](CCCCNC(=O)CC[C@H](NC(=O)CCOCCOCCOCCOCCNC(=O)CC[C@H](NC(=O)CN2CCN(CC(=O)O)CCN(CC(=O)O)CCN(CC(=O)O)CC2)C(=O)NCCOCCOCCOCCOCCC(=O)N[C@@H](CCC(=O)NCCCC[C@@H]2NC(=O)[C@@H](Cc3ccccc3)NC(=O)[C@H](CC(=O)O)NC(=O)CNC(=O)[C@H](CCCNC(=N)N)NC2=O)C(=O)NCCCC[C@@H]2NC(=O)[C@@H](Cc3ccccc3)NC(=O)[C@H](CC(=O)O)NC(=O)CNC(=O)[C@H](CCCNC(=N)N)NC2=O)C(=O)NCCCC[C@@H]2NC(=O)[C@@H](Cc3ccccc3)NC(=O)[C@H](CC(=O)O)NC(=O)CNC(=O)[C@H](CCCNC(=N)N)NC2=O)NC(=O)[C@@H](Cc2ccccc2)NC(=O)[C@H](CC(=O)O)NC(=O)CNC1=O [indium-111 labelled]	–	–	female athymic nude mice, eyes	intravenous, 3 µCi, 4 h, U-87 MG glioma xenograft	–	tissue uptake	0.78 ± 0.31 %ID/g
C[C@]12CC[C@H](OCC[18F])C[C@H]1CC[C@@H]1[C@@H]2CC[C@]2(C)[C@@H](c3ccc(=O)oc3)CC[C@]12O	SMMC-7721 tumour model	–	nude, tumour	intravenous, 7.4 MBq, 4 h, tumour-bearing	–	tracer uptake	3.24 %ID/g
CCCCCC(=O)NCC(=O)N[C@@H](CC(C)C)C(=O)N[C@@H](CC(C)C)C(=O)N[C@@H](CCCCN)C(=O)N[C@@H](CCCNC(=N)N)C(=O)N[C@H](C(=O)N[C@@H](CCCCN)C(=O)N[C@H](C(=O)N[C@@H](CC(C)C)C(=O)N[C@@H](CC(C)C)C(=O)NCCCC[C@H](NC(=O)[C@H](CC(C)C)NC(=O)[C@H](CC(C)C)NC(=O)[C@@H](NC(=O)[C@H](CCCCN)NC(=O)[C@@H](NC(=O)[C@H](CCCNC(=N)N)NC(=O)[C@H](CCCCN)NC(=O)[C@H](CC(C)C)NC(=O)[C@H](CC(C)C)NC(=O)CNC(=O)CCCCC)[C@@H](C)CC)[C@@H](C)O)C(=O)NCCCC[C@H](NC(=O)[C@H](CCCCNC(=O)[C@H](CC(C)C)NC(=O)[C@H](CC(C)C)NC(=O)[C@@H](NC(=O)[C@H](CCCCN)NC(=O)[C@@H](NC(=O)[C@H](CCCNC(=N)N)NC(=O)[C@H](CCCCN)NC(=O)[C@H](CC(C)C)NC(=O)[C@H](CC(C)C)NC(=O)CNC(=O)CCCCC)[C@@H](C)CC)[C@@H](C)O)NC(=O)[C@H](CC(C)C)NC(=O)[C@H](CC(C)C)NC(=O)[C@@H](NC(=O)[C@H](CCCCN)NC(=O)[C@@H](NC(=O)[C@H](CCCNC(=N)N)NC(=O)[C@H](CCCCN)NC(=O)[C@H](CC(C)C)NC(=O)[C@H](CC(C)C)NC(=O)CNC(=O)CCCCC)[C@@H](C)CC)[C@@H](C)O)C(N)=O)[C@@H](C)O)[C@@H](C)CC	human erythrocytes	–	–	1 h, 37 °C, 10% haemolysis	–	minimum haemolytic concentration	10.9 µM
CC(C)(C)c1cc(C(C)(C)C)c(-n2cc(-c3cnc4ccccc4c3O)nn2)cc1O	CFTR (Homo sapiens, UniProt P13569, G551D)	short-circuit current, potentiator	FRT CFTR G551D	added: forskolin 10 µM	–	EC50	inactive
CCC(=O)N(C)c1ccc(Cl)c(Cl)c1	Salmonella typhimurium	Ames test	TA1535	0.10 mg/plate, without S9 activation	–	revertants	15 ± 5 revertants/plate
CCCC(=O)NCC(=O)N[C@@H](CC(C)C)C(=O)N[C@@H](CC(C)C)C(=O)N[C@@H](CCCCN)C(=O)N[C@@H](CCCNC(=N)N)C(=O)N[C@H](C(=O)N[C@@H](CCCCN)C(=O)N[C@H](C(=O)N[C@@H](CC(C)C)C(=O)N[C@@H](CC(C)C)C(=O)NCCCC[C@H](NC(=O)[C@H](CC(C)C)NC(=O)[C@H](CC(C)C)NC(=O)[C@@H](NC(=O)[C@H](CCCCN)NC(=O)[C@@H](NC(=O)[C@H](CCCNC(=N)N)NC(=O)[C@H](CCCCN)NC(=O)[C@H](CC(C)C)NC(=O)[C@H](CC(C)C)NC(=O)CNC(=O)CCC)[C@@H](C)CC)[C@@H](C)O)C(=O)NCCCC[C@H](NC(=O)[C@H](CCCCNC(=O)[C@H](CC(C)C)NC(=O)[C@H](CC(C)C)NC(=O)[C@@H](NC(=O)[C@H](CCCCN)NC(=O)[C@@H](NC(=O)[C@H](CCCNC(=N)N)NC(=O)[C@H](CCCCN)NC(=O)[C@H](CC(C)C)NC(=O)[C@H](CC(C)C)NC(=O)CNC(=O)CCC)[C@@H](C)CC)[C@@H](C)O)NC(=O)[C@H](CC(C)C)NC(=O)[C@H](CC(C)C)NC(=O)[C@@H](NC(=O)[C@H](CCCCN)NC(=O)[C@@H](NC(=O)[C@H](CCCNC(=N)N)NC(=O)[C@H](CCCCN)NC(=O)[C@H](CC(C)C)NC(=O)[C@H](CC(C)C)NC(=O)CNC(=O)CCC)[C@@H](C)CC)[C@@H](C)O)C(N)=O)[C@@H](C)O)[C@@H](C)CC	human erythrocytes	–	–	1 h, 37 °C, 10% haemolysis	–	minimum haemolytic concentration	1.06 µM
Cc1nc([C@H](NC(=O)c2ccc(-c3ccc(Cl)cc3)[nH]2)[C@H]2CCCCN2)sc1CO	U87.CD4.CXCR4	cell growth or viability, XTT	–	–	–	CC50	~20 µM
CCCCCn1cc(C(=O)c2cccc3ccccc23)c2ccccc21	CNR1 (Homo sapiens, UniProt P21554, L193I)	Gαi1 engagement, agonist, BRET	–	–	reference: reference agonist at wild-type CB1	Emax	91.8 ± 2.1%

For quick reference, copied from above:
SMILES	tested on	test	system	conditions	how to read	measurement	value
COc1cc(C(=O)NCCOCCOCCOCCNC(=O)c2ccc([18F])nc2)ccc1NC(=O)C1NC(CC(C)(C)C)C(C#N)(c2ccc(Cl)cc2F)C1c1cccc(Cl)c1F (stereo not shown)	HepG2 tumour model	–	host not given, tumour	2 h, tumour-bearing	–	tracer uptake	2.07 %ID/g
CN[C@](C)(C[18F])C(=O)O	DU-145 tumour model	–	host not given, muscle	1 h, tumour-bearing	–	tracer uptake	1.2 %ID/g
